# Measurements of several laboratories.
# Parts stem from different laboratories: compare values within a part only.

# Series 1
# Target: Interferon regulatory factor 3, full length, phosphomimetic (IRF3, Homo sapiens, UniProt Q14653, residues 1-427, S386D/S396D/S398D/S402D/T404D/S405D)
# Method: protein-binding microarray
# Form: double-stranded DNA, one strand shown
# Medium: in vitro
# Tested at: 2540 nM top
# Notes: 60-bp whole probe
# With: salmon DNA 0.4 mg/ml
# Reference: random background probes
# Direction: higher = stronger binding
# Shared flanks, not repeated: GCCTAGCAC … GTCTTGATTCGCTTGACGCTGCTG
# Target sequence (chain): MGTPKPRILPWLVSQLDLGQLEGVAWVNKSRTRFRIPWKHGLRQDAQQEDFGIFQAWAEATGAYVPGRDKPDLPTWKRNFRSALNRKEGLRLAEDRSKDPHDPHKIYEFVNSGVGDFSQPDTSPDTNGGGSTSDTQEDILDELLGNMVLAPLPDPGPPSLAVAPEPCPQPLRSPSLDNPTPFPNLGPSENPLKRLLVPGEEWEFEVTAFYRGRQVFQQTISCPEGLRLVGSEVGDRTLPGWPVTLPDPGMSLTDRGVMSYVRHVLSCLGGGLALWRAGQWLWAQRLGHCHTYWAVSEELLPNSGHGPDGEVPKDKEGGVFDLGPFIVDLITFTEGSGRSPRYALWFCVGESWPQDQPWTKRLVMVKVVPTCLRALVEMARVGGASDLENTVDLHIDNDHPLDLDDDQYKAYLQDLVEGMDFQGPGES
Oligonucleotide,fitted relative affinity [z-score]
TTTGCTTTCCTTCTTGAACTGTGCTAG,8.33
TTAGGACTGCTTTTTCTTTAGTGCTAG,0.18
GACGAACTGGAGTATCGAGACGTGCTA,-0.217
TTAGATATCACTATCGATTAGTGCTAG,1.41
TTGGGTCTCCTTCTCCTTTAGTGCTAG,3.04
GACGATCTCAGACTGGACACGTGCTAG,0.312

# Series 2
# Target: Histone acetyltransferase KAT6A, winged helix 2, GST fusion (KAT6A, Homo sapiens, UniProt Q92794, residues 85-181)
# Method: protein binding microarray
# Form: double-stranded DNA, one strand shown
# Medium: in vitro
# Tested at: not given
# Notes: 8-mer, flanks averaged, mean of 2 arrays, mostly near background
# Reference: not given
# Direction: higher = stronger binding
# Construct (chain): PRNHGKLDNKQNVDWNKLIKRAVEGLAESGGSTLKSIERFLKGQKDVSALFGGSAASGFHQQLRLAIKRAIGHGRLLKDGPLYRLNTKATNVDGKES
Oligonucleotide,E-score
AGTACTTC,0.0107
CGATCTAC,-0.0484
GCAAACAC,-0.0104
ATGCTAAC,0.176
ACCATATG,-0.316

# Series 3
# Target: Sal-like protein 4, full length isoform A (SALL4, Homo sapiens, UniProt Q9UJQ4, residues 1-1053)
# UniProt Q9UJQ4, sequence (whole entry, looked up): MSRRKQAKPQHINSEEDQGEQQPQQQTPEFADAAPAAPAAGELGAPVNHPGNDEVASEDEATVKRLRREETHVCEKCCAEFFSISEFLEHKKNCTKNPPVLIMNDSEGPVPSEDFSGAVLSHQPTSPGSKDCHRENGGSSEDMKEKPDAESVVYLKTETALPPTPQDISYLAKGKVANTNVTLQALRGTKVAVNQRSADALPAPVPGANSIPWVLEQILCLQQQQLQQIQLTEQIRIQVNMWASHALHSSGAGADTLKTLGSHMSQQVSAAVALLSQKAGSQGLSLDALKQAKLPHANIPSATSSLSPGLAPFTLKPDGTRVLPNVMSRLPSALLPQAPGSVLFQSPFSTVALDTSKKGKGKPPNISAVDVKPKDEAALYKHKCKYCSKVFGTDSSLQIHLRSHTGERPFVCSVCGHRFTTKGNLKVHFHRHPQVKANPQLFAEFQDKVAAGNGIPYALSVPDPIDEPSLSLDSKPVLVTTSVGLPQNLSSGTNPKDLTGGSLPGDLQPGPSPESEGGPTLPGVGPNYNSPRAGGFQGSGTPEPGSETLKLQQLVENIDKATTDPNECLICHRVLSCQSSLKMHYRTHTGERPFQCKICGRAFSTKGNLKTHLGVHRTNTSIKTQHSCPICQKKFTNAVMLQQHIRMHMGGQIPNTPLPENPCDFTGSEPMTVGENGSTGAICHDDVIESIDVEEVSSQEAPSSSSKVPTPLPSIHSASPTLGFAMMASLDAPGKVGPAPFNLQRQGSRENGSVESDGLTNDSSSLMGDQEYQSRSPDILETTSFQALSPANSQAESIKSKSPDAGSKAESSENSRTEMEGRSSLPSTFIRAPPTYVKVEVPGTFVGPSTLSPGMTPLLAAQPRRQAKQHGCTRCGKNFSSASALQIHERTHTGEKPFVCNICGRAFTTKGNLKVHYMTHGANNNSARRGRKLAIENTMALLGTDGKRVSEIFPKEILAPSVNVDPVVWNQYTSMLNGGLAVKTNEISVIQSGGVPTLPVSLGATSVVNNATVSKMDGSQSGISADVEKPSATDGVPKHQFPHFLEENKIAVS
# Method: universal PBM
# Form: double-stranded DNA, one strand shown
# Medium: in vitro
# Tested at: 600 nM
# Notes: 8-mer, flanks averaged, mean of replicates
# Direction: higher = stronger binding
Oligonucleotide,E-score
AAAGCTCT,-0.103
CCACACTC,-0.108
CAACCAAA,0.0424
ACCGGAAA,0.0384
GCCACACC,-0.142
AGCCGGTG,-0.318

# Further values, each from its own experiment
Substance,target,assay,test system,setting,how to read,endpoint,result
"PhoQ, residues 284 288 289 292 302 303 TAVSDG","PhoP, residues 12 14 15 18 19 TPWLV (Escherichia coli, UniProt P23836)","Sort-seq, measured: YFP reporter",E. coli,"PhoQ-PhoP variant library, with: 10 µM Mg2+","reference: high Mg2+ state, higher = stronger signaling",fold induction,3.63

# Some of these lines once more (series 1):
Oligonucleotide,fitted relative affinity [z-score]
TTTGCTTTCCTTCTTGAACTGTGCTAG,8.33
TTAGGACTGCTTTTTCTTTAGTGCTAG,0.18
